Experimental data pooled from the literature.
Protocols differ between the studies behind these lines. ± marks the error that the study gave.

For `COc1ccc([C@@H]2COC[C@H](c3ccc(C(C)(C)C)cc3)N2)cc1`, the solubility was less than 4 µM (shake-flask, LC-HRMS; aqueous buffer; 16 h, pH 6.8).
For `Cn1cncc1[C@@](N)(c1ccc(Cl)cc1)c1ccc2c(c1)c(-c1cccc(Cl)c1)cc(=O)n2C`, the solubility was 2.92 ± 0.141 mg/mL (simulated gastric fluid; 37 °C, final pH 2.99).
The solubility of `NC[C@H](NC(=O)OCC1c2ccccc2-c2ccccc21)C(=O)N[C@H](Cc1c[nH]c2ccccc12)C(=O)N[C@@H](CCCCNC(=O)CN1CCN(CC(=O)O)CCN(CC(=O)O)CCN(CC(=O)O)CC1)C(N)=O` is reported as less than 5000 µM (aqueous buffer).
`Cc1ccc(NS(=O)(=O)c2cc(C(=O)Nc3ccccc3C(=O)N3CCOCC3)ccc2Cl)c(C)c1` gave a solubility of less than 0.00377 mg/mL (aqueous buffer; pH 7.4).
For `COc1cc(OC)c2c(=O)cc(-c3ccccc3)oc2c1`, the solubility was 13530 ± 74 ppm (HPLC; ethanol:butylene glycol 75:25).
With `Cc1noc(C)c1Nc1ccnc2ccc(-c3ccc(S(=O)(=O)N4CCOCC4)cc3)cc12` the solubility was 2 µM (thermodynamic; aqueous medium).
For `COc1ccccc1NC(=O)CSc1nnc(-c2ccc([N+](=O)[O-])cc2)n1-c1ccccc1`, the solubility was less than 0.00247 mg/mL (aqueous buffer; pH 7.4).
With `c1cncc(-c2cccc(Nc3nccc(NC4CCNCC4)n3)c2)c1` the solubility was 68.4 ± 2 µM (citrate phosphate-buffered saline; 18 h, pH 7.4, 1% DMSO).
`CC1(C)OC[C@H](C2CCCCC2)N[C@@H]1c1ccc(Cl)c(Cl)c1` has a solubility of less than 4 µM (shake-flask, LC-HRMS; aqueous buffer; 16 h, pH 6.8).
With `NC(=O)c1ccc(NCCCN2CCOCC2)c([N+](=O)[O-])c1` the solubility was 0.599 mg/mL (aqueous buffer; pH 7.4).
`CC(C)(C)C[C@@H]1COC[C@H](c2ccc(C(F)(F)F)cc2)N1` gave a solubility of less than 4 µM (shake-flask, LC-HRMS; aqueous buffer; 16 h, pH 6.8).
The solubility of `COc1cccc(OC)c1NS(=O)(=O)c1ccc(N/C=C2\C(=O)Nc3ccc4ncsc4c32)cc1` is reported as less than 0.00272 mg/mL (aqueous buffer; pH 7.4).
The solubility of `CC(C)(C)c1ccc([C@@H]2COC[C@@H](C3CCCCC3)N2)cc1` is reported as less than 4 µM (shake-flask, LC-HRMS; aqueous buffer; 16 h, pH 6.8).
With `Cc1[nH]c(/C=C2\N=C(c3ccc[nH]3)C3=C2OCCO3)cc1Cc1ccc(Cl)cc1.Cl` the solubility was 23.1 µM (potassium phosphate buffer; 1.5 h, pH 7.4, room temperature).
The solubility of `CCC[C@@H](C)[C@H]1COC(C)(C)[C@@H](c2ccc(Cl)c(Cl)c2)N1` is reported as less than 4 µM (shake-flask, LC-HRMS; aqueous buffer; 16 h, pH 6.8).
With `CC(=O)O[C@H]1C(=O)[C@@]2(C)[C@H]([C@H](OC(=O)c3ccccc3)[C@]3(O)C[C@H](OC(=O)[C@H](OC(=O)OCc4cc(C(=O)O)ccc4OP(=O)(O)O)[C@@H](NC(=O)c4ccccc4)c4ccccc4)C(C)=C1C3(C)C)[C@]1(OC(C)=O)CO[C@@H]1C[C@@H]2O` the solubility was 0.022 mg/mL (HPLC, saturated solution; simulated gastric fluid; 30 s, pH 1.2).
`c1ccc(-c2cccc(Nc3nccc(NC4CCCCC4)n3)c2)nc1` has a solubility of 1 ± 4.4 µM (citrate phosphate-buffered saline; 18 h, pH 7.4, 1% DMSO).
With `CCOC(=O)N1C[C@@H](C2CCCCC2)N[C@@H](c2ccc(C(C)(C)C)cc2)C1` the solubility was less than 4 µM (shake-flask, LC-HRMS; aqueous buffer; 16 h, pH 6.8).
For `Cc1c(NS(=O)(=O)c2cccc3nonc23)c(=O)n(-c2ccccc2)n1C`, the solubility was 0.00548 mg/mL (aqueous buffer; pH 7.4).
For `CC1(C)OC[C@H](C2CCC2)N[C@@H]1c1ccc(Cl)c(Cl)c1`, the solubility was less than 4 µM (shake-flask, LC-HRMS; aqueous buffer; 16 h, pH 6.8).
`CSc1ccc(S(=O)(=O)NCc2ccccn2)cc1` gave a solubility of 0.0609 mg/mL (aqueous buffer; pH 7.4).
`Cn1nc2ccccc2c1[C@H]1COC(C)(C)[C@@H](c2ccc(-c3ccccc3)cc2)N1` has a solubility of less than 4 µM (shake-flask, LC-HRMS; aqueous buffer; 16 h, pH 6.8).
For `Cc1ccnc(NS(=O)(=O)c2ccc(NC(=O)c3cncc(Br)c3)cc2)n1`, the solubility was 0.0653 mg/mL (aqueous buffer; pH 7.4).
`Cc1cc(/C=C/C#N)cc(C)c1Nc1ccnc(Nc2ccc(C#N)cc2)n1` gave a solubility of 0.43 ± 0.03 mg/mL (Peceol; 24 h, 37 °C).
With `COc1c(NC(=O)C(=O)c2ccc(OCCN3CCOCC3)c3ccccc23)cc(C(C)(C)C)cc1NS(C)(=O)=O` the solubility was less than 1 µM (PBS; pH 7.4, 23 °C, 1% DMSO).

Repeated from above:
With `CC(=O)O[C@H]1C(=O)[C@@]2(C)[C@H]([C@H](OC(=O)c3ccccc3)[C@]3(O)C[C@H](OC(=O)[C@H](OC(=O)OCc4cc(C(=O)O)ccc4OP(=O)(O)O)[C@@H](NC(=O)c4ccccc4)c4ccccc4)C(C)=C1C3(C)C)[C@]1(OC(C)=O)CO[C@@H]1C[C@@H]2O` the solubility was 0.022 mg/mL (HPLC, saturated solution; simulated gastric fluid; 30 s, pH 1.2).
